Experimental data of several laboratories.
± marks the error that the study gave.
Cell line: MCF7

CCCCCCCCn1c2ccccc2c2cc(-c3cn(-c4ccc(-c5cc(-c6ccccn6)nc(-c6ccccn6)c5)cc4)nn3)ccc21
IC50 (cell growth or viability, MTS; 72 h): 9.96 µM

C[C@@H]1CC[C@@H]([C@](O)(CNCc2cccc(F)c2)COCc2ccccc2)[C@H](OCc2ccccc2)C1
IC50 (cell growth or viability, MTT; 72 h): 1.1 µM

N#C[CH2][Pd]1[O]c2ccccc2C=Nc2cccnc2[N]1Cc1ccccc1
IC50 (cell growth or viability, MTT; 48 h): 20.8 µM

Nc1ccccc1NC(=O)c1cnccn1
IC50 (cell growth or viability, MTT; 48 h): 46.3 µM

O=C(c1ccc2ccccc2c1)c1cn(-c2ccccc2)nc1C1=Nn2c(Cc3nnc4n3N=C(c3nn(-c5ccccc5)cc3C(=O)c3ccc5ccccc5c3)CS4)nnc2SC1
IC50 (cell growth or viability, MTT; 48 h): 0.39 µM

COc1c(O)cc2oc3c(Br)c(O)c(CCC(C)C)c(O)c3c(=O)c2c1CCC(C)C
IC50 (cell growth or viability; 48 h): 21.9 µM

COc1cc(/C=C/C=O)ccc1O
IC50 (cell growth or viability, MTT): > 30 µM

COc1ccc2cc3[n+](cc2c1OCc1cn(Cc2ccc(C(C)(C)C)cc2)nn1)CCc1cc2c(cc1-3)OCO2
IC50 (cell growth or viability, MTT): 15.8 µM

O=[C]=[Re-2]1(=[C]=O)(=[C]=O)([O]S(=O)(=O)c2ccc3ccccc3c2)[n+]2ccc(-c3ccccc3)c3ccc4c(-c5ccccc5)cc[n+]1c4c32
IC50 (cell growth or viability, resazurin; 72 h): 1.31 µM

CC(=O)OC[C@H]1O[C@@H](N2C(=O)/C(=C/c3ccc4c(c3)OCCO4)SC2=S)[C@H](OC(C)=O)[C@@H](OC(C)=O)[C@@H]1OC(C)=O
IC50 (cell growth or viability, MTT; 48 h): 6.1 µM

NS(=O)(=O)c1ccc(/N=N/c2ccc(O)c(/C=N/c3cc([N+](=O)[O-])ccc3O)c2)cc1
IC50 (cell growth or viability, MTT; 48 h): 9.28 µM

O=C(NCCCCCCNc1n[n+]([O-])c2ccccc2[n+]1[O-])C(F)(F)F
IC50 (cytotoxicity, MTT; 10% FBS medium; 6 h + 18 h, hypoxia 3% O2): 46.7 ± 1 µM

Nc1ncnc2c1C(c1cccs1)C1=C(CCCC1=O)O2 (stereo not drawn)
IC50 (cell growth or viability, MTT; 72 h): 45.6 µM

CCC(C(=O)O)C1CCC(C)C(C(C)C(O)C(C)C(=O)C(CC)C2OC3(C=CC(NCc4cn(Cc5ccccc5)nn4)C4(CCC(C)(C5CCC(O)(CC)C(C)O5)O4)O3)C(C)CC2C)O1 (stereo not drawn)
IC50 (cell growth or viability, resazurin; 72 h): 0.49 µM

CCn1c(-c2ccccc2)cs/c1=N/N=C(\C)c1c(O)c2ccccc2oc1=O
IC50 (cell growth or viability, MTT; 48 h): 25.9 µM

CC1=CC(c2ccccc2)=[O+][Pt-2]([NH3+])([NH3+])[O]1.O=[N+]([O-])[O-] (stereo not drawn)
IC50 (cell growth or viability, MTT): 33 µM

[Cl][Pd-2]1([Cl])[N+](=P(c2ccccc2)(c2ccccc2)c2ccccc2)Cc2cccc[n+]21
IC50 (cell growth or viability, MTT; 74 h): 25 µM

O=C(CN1CCC(c2noc3cc(F)ccc23)CC1)N1CCC(=C2c3ncccc3CCc3cc(Cl)cc(Br)c32)CC1
IC50 (cell growth or viability, SRB): 45 µM

CC/C(=C(\c1ccccc1)c1ccc(OCCN(C)CCCCCCC(=O)NCCc2c[nH]c3ccc(OC)cc23)cc1)c1ccccc1
IC50 (cell survival, MTT; day 9, dosed days 2, 4, 7): 12.4 µM

C=CCc1ccc(OC(C)=O)c(OC)c1
IC50 (MTT; 24 h): > 50 µM

Oc1ncnc2c1sc1sc3c(O)ncnc3c12
IC50 (cell growth or viability, MTT): 8.96 µM

COc1c(O)cc2oc3cc4c(c(O)c3c(=O)c2c1CC=C(C)C)CC(O)O4 (stereo not drawn)
IC50 (cell growth or viability; 48 h): 19.8 µM

COc1ccc2cc3[n+](cc2c1OCc1cn(Cc2c(Cl)cccc2Cl)nn1)CCc1cc2c(cc1-3)OCO2
IC50 (cell growth or viability, MTT): 73.6 µM

COc1ccc(COC[C@](O)(CNCc2ccccc2)[C@@H]2CC[C@@H](C)C[C@H]2OCc2ccc(OC)cc2)cc1
IC50 (cell growth or viability, MTT; 72 h): 1.5 µM

CCCCCCCCCCCCCCn1c(-c2cccnc2)nc(-c2ccc(C)cc2)c1-c1ccc(C)cc1
IC50 (cell growth or viability, SRB; 48 h): > 100 µM

CC(C)=CCC1=C([O-])C(=O)c2ccccc2C1=O.O=[N+]([O-])[O-].[Cu+2].c1ccc(-c2cccc(-c3ccccn3)n2)nc1
IC50 (cell viability, MTT; 24 h): 39.2 ± 4.3 µM

C=CC(=C)CC[C@]1(C)[C@H](C)CC[C@@]23C(=C[C@H](OC(=O)C(C)C)C[C@@H]12)[C@@H](OC(C)=O)O[C@H]3OC(C)=O
IC50 (cell growth or viability, SRB): 26.2 µM

CC(C)=CCCC(C)(O)C1CCC2(C)C1C(O)CC1C3(C)CCC(OC4OC(COC(=O)CCCCCN5C(=O)C=CC5=O)C(O)C(OC(=O)CCCCCN5C(=O)C=CC5=O)C4O)C(C)(C)C3CCC12C (stereo not drawn)
IC50 (cell growth or viability, MTT): 29.8 µM

COc1cc(OC)c(-c2coc3c4c(c(OC)cc3c2=O)OC(C)(C)C=C4)cc1OC
IC50 (cell growth or viability, MTT; 72 h): 14.4 µM

CCN1CCC2(CC1)C/C(=N\NC(=O)Nc1ccccc1)c1ccccc1O2
IC50 (cell growth or viability, MTT; 48 h): 6.03 µM

C/C1=C/C[C@H]2[C@@H]3[C@@H]([C@]4(C)CO4)CC[C@@]3(C)CC[C@]2(C)C[C@H]2[C@@H](C)CC[C@@H]12
IC50 (cell growth or viability, MTT; 72 h): 117 µM

O=C(/C(Br)=N/Nc1ccccc1)c1ccccc1
IC50 (cell growth, MTT): 11.2 to 19.5 µM

O=C(CCl)Sc1nnc(-c2n[nH]c(=O)c3ccccc23)o1
IC50 (cell growth or viability, MTT; 48 h): 5 µM

CCCn1c(-c2cccnc2)nc(-c2ccc(C)cc2)c1-c1ccc(C)cc1
IC50 (cell growth or viability, SRB; 24 h): > 100 µM

CC(C)(C)c1ccc2[c](c1)[Au-]1([Cl])[c]3cc(C(C)(C)C)ccc3-c3cncc-2[n+]31
IC50 (cell growth or viability, MTS): 8.6 µM

CCCC(CCC)C(=O)[O][Pt]1([OH])[O]C(=O)C(=O)[O]1.NC1CCCCC1N
IC50 (cytotoxicity; 72 h): 31.6 ± 2.1 µM

CC(C)c1cccc(C(C)C)c1N1CCN(c2c(C(C)C)cccc2C(C)C)C1=[Se].[Cl][Ag]
IC50 (cell growth or viability, MTT; 72 h): 6.7 µM

Cc1cc(N2CCN(C(=O)CN3CCCCC3)CC2)n2ncnc2n1
IC50 (cell growth or viability, MTT): 67.3 µM

C=C1[C@@H]2[C@H]3OC(=O)/C(=C/c4ccccc4)[C@@H]3CCC(=C)[C@@H]2C[C@@H]1OC(C)=O
IC50 (cell growth or viability, MTT; 48 h): 37 µM

C=CCc1ccc(OCc2nnc(SCC(=O)Nc3ccc(F)cc3F)o2)c(OC)c1
IC50 (cell growth or viability, MTT; 72 h): 2.87 µM

CSc1nc(Nc2ccc(C(=O)N/N=C/c3ccccc3Cl)cc2)c(C#N)c(-c2ccccc2)n1
IC50 (cell growth or viability, MTT; 48 h): 28.7 µM

COc1cc(/C=C/C(=O)/C=C(O)/C=C/c2ccc(OCC(=O)N3CCOCCOCCOCC3)c(OC)c2)ccc1OCC(=O)N1CCOCCOCCOCC1
IC50 (cell growth or viability, SRB): 10.8 µM

COc1ccc(-c2noc(NC(=O)c3ccc(F)c(C(F)(F)F)c3)c2C#N)c(OC)c1
IC50 (cytotoxicity, MTT; 72 h): 14.7 µM

N=C(N)NCCC[C@@H](N)C(=O)N[C@@H](CC(=O)N[C@H](Cc1ccccc1)C(=O)N[C@H](CC(=O)O)C(N)=O)c1ccc2ccccc2c1
IC50 (cell growth or viability, ATP luminescence; 72 h): > 100 µM

CSC(S)(NN)NN=C(C)c1ccc(S(=O)(=O)N2CCC(C)CC2)cc1 (stereo not drawn)
IC50 (cell growth, MTT): 24.6 to 122 µM

CC(=O)[O-].O.O.O.O.[Co+2].[O-]c1ccc(Br)cc1C=NCCN1CCOCC1
IC50 (cell viability, MTT; 72 h): 23.8 µg/mL

CCOc1cccc(/C=N/Cc2ccccn2)c1O
IC50 (cell growth or viability, MTT; 48 h): 79.6 µM

C[C@H]1CCCC[C@@H]1NC(=O)/C(C#N)=C/c1cn(-c2ccccc2)nc1-c1cccs1
IC50 (cell growth or viability, MTT; 24 h): 97.6 µM

CC(C)(C)c1cc2c(O)c(c1)Cc1cc(C(C)(C)C)cc(c1OCC(=O)Nc1nccs1)Cc1cc(C(C)(C)C)cc(c1O)Cc1cc(C(C)(C)C)cc(c1OCC(=O)Nc1nccs1)COC2
IC50 (cell growth or viability, MTT; 72 h): 2.7 µM

Cc1ccc(C(C)C)cc1.Cl.[Cl][Ru+].[Ru+].c1ccc(-c2cn(CCCCOc3ccccc3-c3nc4ccccc4s3)nn2)nc1
IC50 (cytotoxicity, MTT; 48 h): 7.85 ± 3.09 µM

C[C@]12CC/C(=N\OCCN3CCCC3)C=C1CCC1C2CC[C@]2(C)/C(=C/c3ccccn3)CCC12 (stereo partly drawn)
IC50 (cell growth or viability, MTT; 72 h): > 100 µM

O=C(CCc1nc2cc(Cl)ccc2[nH]c1=O)Nc1ccc(F)cc1
IC50 (cell growth or viability, MTT): 80.4 µM

COc1cc(/C=C/c2cc(C)n[nH]2)ccc1O
IC50 (cell growth or viability, MTT; 48 h): 42 µM

CCCCCCCCCCCCCCCOC(=O)/C=C/c1ccc(O)c(O)c1
IC50 (cell viability, MTT; 48 h, serum-free medium): 1.3 ± 0.1 µg/mL
